Published values pooled from the literature.
Parts stem from different laboratories: compare values within a part only. Positions count from the first letter of the parent shown.
Sequence of UniProt O15294 (whole entry, looked up): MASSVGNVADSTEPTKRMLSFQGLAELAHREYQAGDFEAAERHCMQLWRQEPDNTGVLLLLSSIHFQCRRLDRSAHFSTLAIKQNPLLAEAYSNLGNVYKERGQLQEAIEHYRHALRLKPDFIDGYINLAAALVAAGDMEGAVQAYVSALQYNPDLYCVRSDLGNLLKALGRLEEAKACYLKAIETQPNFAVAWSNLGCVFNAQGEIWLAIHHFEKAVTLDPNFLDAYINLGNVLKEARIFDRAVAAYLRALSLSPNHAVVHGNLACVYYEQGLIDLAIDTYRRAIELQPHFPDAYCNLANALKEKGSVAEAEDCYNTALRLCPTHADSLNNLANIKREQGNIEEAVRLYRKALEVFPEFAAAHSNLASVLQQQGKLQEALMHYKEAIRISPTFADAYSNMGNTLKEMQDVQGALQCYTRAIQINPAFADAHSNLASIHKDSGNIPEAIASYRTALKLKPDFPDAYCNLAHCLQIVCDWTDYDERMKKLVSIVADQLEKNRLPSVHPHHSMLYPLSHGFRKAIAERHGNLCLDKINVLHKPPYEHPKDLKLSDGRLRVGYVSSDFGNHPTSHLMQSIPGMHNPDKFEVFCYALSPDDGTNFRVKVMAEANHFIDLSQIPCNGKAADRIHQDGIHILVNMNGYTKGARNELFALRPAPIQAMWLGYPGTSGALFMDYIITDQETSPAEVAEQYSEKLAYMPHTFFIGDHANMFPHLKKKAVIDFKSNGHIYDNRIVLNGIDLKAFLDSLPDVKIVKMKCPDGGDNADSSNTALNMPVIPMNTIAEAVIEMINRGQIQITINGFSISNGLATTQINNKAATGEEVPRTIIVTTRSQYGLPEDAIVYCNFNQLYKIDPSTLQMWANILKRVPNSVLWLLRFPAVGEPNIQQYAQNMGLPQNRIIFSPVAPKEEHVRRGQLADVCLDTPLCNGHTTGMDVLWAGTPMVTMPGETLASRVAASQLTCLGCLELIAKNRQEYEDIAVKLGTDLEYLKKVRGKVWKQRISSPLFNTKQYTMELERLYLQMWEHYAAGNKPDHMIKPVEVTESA

Block 1 — technique: protein-binding microarray; molecule type: double-stranded DNA, one strand shown; matrix: in vitro; concentration: not given; direction: higher = stronger binding
Target: Protein C-ets-1 (ETS1, Homo sapiens, UniProt P14921, residues 1-441, K379A, full length assumed)
Setting: k-mer, scored over probes, only values ≥0.25
Residues (chain): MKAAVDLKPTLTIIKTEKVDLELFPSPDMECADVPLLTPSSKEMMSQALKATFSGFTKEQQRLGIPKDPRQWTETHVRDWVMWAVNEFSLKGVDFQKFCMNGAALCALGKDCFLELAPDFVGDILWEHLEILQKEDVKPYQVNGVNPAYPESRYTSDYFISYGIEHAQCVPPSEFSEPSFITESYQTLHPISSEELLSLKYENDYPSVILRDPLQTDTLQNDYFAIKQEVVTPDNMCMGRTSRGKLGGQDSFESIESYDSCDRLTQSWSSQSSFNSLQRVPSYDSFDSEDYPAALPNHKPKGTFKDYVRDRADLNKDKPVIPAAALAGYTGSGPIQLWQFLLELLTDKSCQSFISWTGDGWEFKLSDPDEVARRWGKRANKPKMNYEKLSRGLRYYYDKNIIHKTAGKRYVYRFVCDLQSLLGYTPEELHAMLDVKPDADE
`ACCCGGTG` gave an E-score of 0.293.
For `CCGGTTAG`, the E-score was 0.389.
With `ACCGGTAG` the E-score was 0.421.
With `CCGTACGA` the E-score was 0.265.
`CCGGTGAC` has an E-score of 0.381.
With `GCGCCGCC` the E-score was 0.306.
The E-score of `TAACGGTA` is reported as 0.264.
With `ATCCGCCC` the E-score was 0.301.

Block 2 — technique: protein binding microarray; molecule type: double-stranded DNA, one strand shown; matrix: in vitro; concentration: not given; reference: not given; direction: higher = stronger binding
Target: Histone acetyltransferase KAT6A, winged helix 2, GST fusion (KAT6A, Homo sapiens, UniProt Q92794, residues 85-181)
Setting: 8-mer, flanks averaged, mean of 2 arrays, mostly near background
Residues (chain): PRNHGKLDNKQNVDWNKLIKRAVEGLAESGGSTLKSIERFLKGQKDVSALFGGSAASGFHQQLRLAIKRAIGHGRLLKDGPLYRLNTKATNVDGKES
`ACAGTGGG` gave an E-score of -0.015.
`CGGGCGCA` has an E-score of 0.33.
For `AAAGCGAA`, the E-score was 0.15.
The E-score of `CCGGATAG` is reported as 0.0016.
For `GACACAGA`, the E-score was 0.155.
The E-score of `AATTTCCG` is reported as 0.0171.
`AACAGTGT` has an E-score of -0.168.
`CCTCTAGA` gave an E-score of -0.118.

Block 3 — target: NFE2L2, bZIP domain (human); technique: DHFR protein complementation; matrix: yeast; reference: wild-type JUN-FOS pair; direction: higher = stronger binding
Setting: single substitutions, most at no-binding floor
Parent: JUN, bZIP domain (human); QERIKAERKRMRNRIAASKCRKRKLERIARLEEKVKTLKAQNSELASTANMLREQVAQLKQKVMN; partner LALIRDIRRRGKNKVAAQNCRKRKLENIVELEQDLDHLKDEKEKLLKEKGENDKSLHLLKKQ
With `T37L` the binding fitness was -1.5 natural log.
The binding fitness of `L52Q` is reported as -1.54 natural log.
For `K39C`, the binding fitness was -1.59 natural log.
`A49P` gave a binding fitness of -1.5 natural log.
`N42L` has a binding fitness of -1.4 natural log.
`A40H` gave a binding fitness of -1.5 natural log.
The binding fitness of `V35E` is reported as -1.34 natural log.
`K39D` gave a binding fitness of -1.53 natural log.

Further values, each from its own experiment
`QLYPVDKHHTHHHVT`: “enrichment fold change” 8.39 (UDP-N-acetylglucosamine--peptide N-acetylglucosaminyltransferase 110 kDa subunit (OGT, Homo sapiens, UniProt O15294); binding, phage display NGS; peptide; concentration not given, normalized abundance; reference: input library).
